Measurements pooled from the literature.
Compare with care: the assays were run in different laboratories. ± marks the error that the study gave.

Compound	test	test system	setting	how to read	endpoint	value
C=C(NC(=O)C(=C)NC(=O)c1csc(C2=NC3c4csc(n4)C4NC(=O)c5csc(n5)C(C(C)(O)C(C)O)NC(=O)C5CSC(=N5)C(=CC)NC(=O)C(C(C)O)NC(=O)c5csc(n5)C3(CC2)NC(=O)C(C)NC(=O)C(=C)NC(=O)C(C(C)C)NC2C=Cc3c(C(C)O)cc(nc3C2O)C(=O)OC4C)n1)C(N)=O (centres unmarked)	protein synthesis, inhibitor, coupled transcription-translation	Escherichia coli S30 extract	–	reference: thiostrepton A	IC50 fold change	≥ 5 fold
CC1=C(C(=O)Nc2ccc(F)cc2)C(c2ccccc2Cl)NC(=S)N1 (centres unmarked)	contraction, calcium channel antagonist	isolated rat ileum	together with: K+ 80 mM	–	IC50	22.6 ± 1.99 µg/mL
CC[C@H](C)[C@H](NC(=O)[C@H](CCCNC(=N)N)NC(=O)[C@@H](N)CCCNC(=N)N)C(=O)N[C@@H](CCCNC(=N)N)C(=O)N[C@@H](Cc1ccccc1)C(=O)N[C@@H](CCCNC(=N)N)C(=O)N1CCC[C@H]1C(=O)N1CCC[C@H]1C(=O)N[C@@H](Cc1ccc(O)cc1)C(=O)N[C@@H](CC(C)C)C(=O)N1CCC[C@H]1C(=O)N[C@@H](CCCNC(=N)N)C(=O)N1CCC[C@H]1C(=O)NCC(=O)N[C@@H](CCCNC(=N)N)C(=O)N[C@@H](CCCNC(=N)N)C(=O)N1CCC[C@H]1C(=O)N[C@@H](CCCNC(=N)N)C(=O)N[C@@H](Cc1ccccc1)C(=O)N1CCC[C@H]1C(=O)N1CCC[C@H]1C(=O)N1CCC[C@H]1C(=O)N[C@@H](Cc1ccccc1)C(=O)N1CCC[C@H]1C(=O)N[C@H](C(=O)N1CCC[C@H]1C(=O)N[C@@H](CCCNC(=N)N)C(=O)N[C@H](C(=O)N1CCC[C@H]1C(=O)N[C@@H](CCCNC(=N)N)C(=O)N[C@H](C(=O)N1CCC[C@H]1C(=O)O)[C@@H](C)CC)[C@@H](C)CC)[C@@H](C)CC	coupled transcription/translation, firefly luciferase reporter	Escherichia coli lysate	1 h, 30 °C	–	IC50	< 5000 nM
CONC(=O)[C@H]1[C@@H](O)[C@@]2(O)c3c(OC)cc(OC)cc3O[C@@]2(c2ccc(OC)cc2)[C@@H]1c1ccccc1	cap-dependent translation, FLuc reporter	Krebs-2 cell extract	–	–	IC50	54 ± 4 nM
C[C@@H](O)[C@H](NC(=O)[C@H](CCCCN)NC(=O)[C@H](Cc1c[nH]c2ccccc12)NC(=O)CN)C(=O)N[C@@H](CCCNC(=N)N)C(=O)NC(C)(C)C(=O)N[C@@H](CCCNC(=N)N)C(=O)NC(C)(C)C(=O)N[C@H](C(=O)N[C@@H](CO)C(=O)N[C@@H](Cc1c[nH]cn1)C(=O)N[C@@H](Cc1ccc(O)cc1)C(=O)NCC(=O)O)[C@@H](C)O	platelet aggregation	human whole blood	together with: collagen I	–	IC50	1000 nM
CCCCn1cc(C(=O)O)c(=O)c2cc(F)c(Nc3ccccc3Cl)c(N)c21	DPPH radical scavenging	–	30 min	–	IC50	36.25 ± 0.21 µg/mL
CC(=O)O[C@H]1CC[C@]2(C)[C@H]3CC=C4[C@@H]5[C@@H](C)[C@H](C)CC[C@]5(C)CC[C@@]4(C)[C@]3(C)CC[C@H]2C1(C)C	hydrogen peroxide scavenging, colorimetric	–	–	–	IC50	286.9 ± 1.35 µg/mL
CCCCn1cc(C(=O)O)c(=O)c2cc(F)c(Nc3cccc(Cl)c3)c(N)c21	DPPH radical scavenging	–	30 min	–	IC50	44.4 ± 1.74 µg/mL
C=C(NC(=O)C(=C)NC(=O)c1csc(C2=NC3c4csc(n4)C4NC(=O)c5csc(n5)C(C(C)(O)C(C)O)NC(=O)C5CSC(=N5)C(=CC)NC(=O)C(C(C)O)NC(=O)c5csc(n5)C3(CC2)NC(=O)C(C)NC(=O)C(=C)NC(=O)C(CCSC)NC(=O)C(C(C)CC)NC2C=Cc3c(C(C)O)cc(nc3C2O)C(=O)OC4C)n1)C(N)=O (centres unmarked)	protein synthesis, coupled transcription-translation, refers to: luciferase	Escherichia coli S30 extract	1 h, 37 °C	–	IC50	330 ± 30 nM
CC1=C(C(=O)O)C(c2ccccc2Br)NC(=S)N1 (centres unmarked)	contraction, calcium channel antagonist	isolated rat ileum	together with: K+ 80 mM	–	IC50	24.8 ± 1.94 µg/mL
CCCCCC(O)C=CC=O (centres unmarked)	loss of free thiol groups	rat striatal synaptosomes	15 min	–	IC50	500000 nM

Excerpt of the above:
Compound	test	test system	setting	how to read	endpoint	value
CCCCCC(O)C=CC=O (centres unmarked)	loss of free thiol groups	rat striatal synaptosomes	15 min	–	IC50	500000 nM
